Results pooled from the literature.
Protocols differ between the studies behind these lines.

SMILES	cell line	test	setting	how to read	quantity	value
Cc1ccc(-n2nc3c(=O)n(CCCC(=O)NCC(C)c4ccccc4)nc(C)c3c2C)cc1 (stereo not drawn)	MIA PaCa-2	annexin V/PI flow cytometry	50 µM, 48 h		apoptotic cells	28.6%
CC[C@H](C)[C@H](NC(=O)[C@H](Cc1ccccc1)NC(=O)[C@@H](N)C(C)C)C(=O)N[C@@H](C)C(N)=O	PC-12	Aβ42-induced neurotoxicity, inhibitor, MTT	concentration not given, 6 h, 37 °C, peptide to Aβ42 1:2, with: Aβ42 2 µM	reference: untreated cells	viability	100%
C[C@H]1C(OCCCCCCCC[P+](c2ccccc2)(c2ccccc2)c2ccccc2)O[C@@H]2O[C@@]3(C)CCC4[C@H](C)CCC1[C@]42OO3 (stereo partly drawn)	J82 and T24	western blot, refers to: PCNA	concentration not given, 48 h		protein level	decreased
O=C1[O][Pt]2([OH])([OH])([NH]C3CCCCC3[NH]2)[O]C1=O (stereo not drawn)	MDA-MB-231	annexin V/PI flow cytometry	IC50, 72 h		early apoptotic cells increase	22%
CCOP(=O)(OCC)OCCCCOC(=O)CC1=C(C)C(=Cc2ccc([S+](C)[O-])cc2)c2ccc(F)cc21 (stereo not drawn)	H358	cell proliferation, BrdU incorporation	IC50 concentration, 24 h		inhibition	80%
CCCCc1ccc(C(=O)N[C@@H](CO)C(=O)N[C@H](C(=O)N2CCC[C@H]2C(=O)N[C@@H](CC(N)=O)C(=O)NCC(=O)N[C@@H](CC(C)C)C(=O)O)[C@@H](C)OP(=O)(O)O)cc1	HeLa-H2B-GFP, QQ transfected		30 µM		aberrant prometaphase/metaphase cells	54%
O=C1/C(=C/c2ccc3c(c2)OCCO3)SC(=S)N1[C@@H]1O[C@H](CO)[C@@H](O)[C@H](O)[C@H]1O	HepG2	refers to: Casp-3	IC50, 48 h	reference: untreated	mRNA fold change	4.16 fold
CC[C@H]1OC(=O)[C@H](C(C)C)NC(=O)[C@H](C)OC(=O)[C@@H](C(C)C)NC(=O)[C@@H](C(C)C)OC(=O)[C@H](C(C)C)NC(=O)[C@H](C)OC(=O)[C@@H](C(C)C)NC(=O)[C@@H](C(C)C)OC(=O)[C@H](C(C)C)NC(=O)[C@H](C)OC(=O)[C@@H](C(C)C)NC1=O	U-87 MG	PI staining flow cytometry	0.8 µM, 12 h		G2/M phase cells	9%
CC[C@@]1(OC(=O)CCC(=O)NCCCC[C@H](NC(=O)[C@H](Cc2ccccc2)NC(=O)[C@H](Cc2ccccc2)NC(=O)CCSC2=C(/C=C/C3=[N+](C)c4ccccc4C3(C)C)CCC/C2=C\C=C2\N(C)c3ccccc3C2(C)C)C(=O)N[C@@H](CCCCNC(=O)CCCC[C@@H]2SC[C@@H]3NC(=O)N[C@@H]32)C(=O)O)C(=O)OCc2c1cc1n(c2=O)Cc2cc3ccccc3nc2-1	4T1	CCK-8	20 µM, 4 h then 24 h, with: 808 nm laser 1 W/cm2 5 min	reference: untreated	viability	1.3%
CC/C=C\C/C=C\C/C=C\C/C=C\C/C=C\C/C=C\CCC(=O)Nc1ccn(C2OC(CO)C(O)C2(F)F)c(=O)n1 (stereo not drawn)	COLO 205	NCI60 screen			CC50	50.7 µM
COc1cc(C)c(OC)c2c1OCO2	HCT-116	cell growth or viability	72 h		GI50	> 250 µM
COC1CC(=O)N(C)C=CCCCC(=O)N(C)C(C(C)C)C(=O)N(C)C(CC(C)C)C(=O)OC(C(C)C)CC(C)C1 (stereo not drawn)	HCT-116	RNA sequencing, refers to: insulin secretion signalling pathway	20 µM, 12 h	direction not given	pathway activation z-score	2.33

Repeated from above:
SMILES	cell line	test	setting	how to read	quantity	value
CCCCc1ccc(C(=O)N[C@@H](CO)C(=O)N[C@H](C(=O)N2CCC[C@H]2C(=O)N[C@@H](CC(N)=O)C(=O)NCC(=O)N[C@@H](CC(C)C)C(=O)O)[C@@H](C)OP(=O)(O)O)cc1	HeLa-H2B-GFP, QQ transfected		30 µM		aberrant prometaphase/metaphase cells	54%
